Experimental data from different studies.
± gives the spread as reported.
Hypoxanthine-guanine-xanthine phosphoribosyltransferase: Hypoxanthine-guanine-xanthine phosphoribosyltransferase (Plasmodium falciparum, UniProt P20035)
UniProt P20035, sequence (whole entry, looked up): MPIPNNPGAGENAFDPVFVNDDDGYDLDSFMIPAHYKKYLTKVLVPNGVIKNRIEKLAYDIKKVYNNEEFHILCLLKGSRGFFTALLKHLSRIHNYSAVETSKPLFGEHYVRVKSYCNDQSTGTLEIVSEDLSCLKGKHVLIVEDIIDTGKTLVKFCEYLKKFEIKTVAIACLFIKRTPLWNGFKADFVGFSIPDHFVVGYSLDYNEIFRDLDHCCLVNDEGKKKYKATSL
Beta-lactamase CTX-M-14: Beta-lactamase CTX-M-14 (Escherichia coli, UniProt Q9L5C7)
Htr1a: 5-hydroxytryptamine receptor 1A (Htr1a, Rattus norvegicus, UniProt P19327)
UniProt P19327, sequence (whole entry, looked up): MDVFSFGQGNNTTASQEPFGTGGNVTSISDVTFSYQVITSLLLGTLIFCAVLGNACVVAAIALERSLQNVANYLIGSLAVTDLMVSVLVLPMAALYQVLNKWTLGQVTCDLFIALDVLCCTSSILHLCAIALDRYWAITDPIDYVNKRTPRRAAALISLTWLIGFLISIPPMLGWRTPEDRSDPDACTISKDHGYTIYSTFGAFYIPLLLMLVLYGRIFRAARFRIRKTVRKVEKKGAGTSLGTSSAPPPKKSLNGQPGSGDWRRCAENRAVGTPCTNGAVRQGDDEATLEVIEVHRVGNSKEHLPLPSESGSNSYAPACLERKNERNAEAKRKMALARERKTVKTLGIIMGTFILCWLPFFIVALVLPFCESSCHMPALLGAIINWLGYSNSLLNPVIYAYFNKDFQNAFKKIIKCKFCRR
CHRM4: Muscarinic acetylcholine receptor M4 (CHRM4, Homo sapiens, UniProt P08173)
UniProt P08173, sequence (whole entry, looked up): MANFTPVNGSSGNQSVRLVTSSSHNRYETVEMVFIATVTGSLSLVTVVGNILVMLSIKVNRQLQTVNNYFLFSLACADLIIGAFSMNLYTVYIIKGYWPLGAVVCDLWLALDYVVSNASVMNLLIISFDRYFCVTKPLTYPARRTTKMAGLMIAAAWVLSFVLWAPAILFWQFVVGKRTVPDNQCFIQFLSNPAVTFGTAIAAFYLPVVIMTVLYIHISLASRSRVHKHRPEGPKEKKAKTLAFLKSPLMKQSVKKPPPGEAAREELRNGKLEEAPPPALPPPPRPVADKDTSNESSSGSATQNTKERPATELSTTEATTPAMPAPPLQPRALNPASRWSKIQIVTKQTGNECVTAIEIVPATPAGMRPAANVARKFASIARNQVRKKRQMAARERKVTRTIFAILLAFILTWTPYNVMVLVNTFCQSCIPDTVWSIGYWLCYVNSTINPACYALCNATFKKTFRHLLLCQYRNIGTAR
MAPK8: Mitogen-activated protein kinase 8 (MAPK8, Homo sapiens, UniProt P45983)
UniProt P45983, sequence (whole entry, looked up): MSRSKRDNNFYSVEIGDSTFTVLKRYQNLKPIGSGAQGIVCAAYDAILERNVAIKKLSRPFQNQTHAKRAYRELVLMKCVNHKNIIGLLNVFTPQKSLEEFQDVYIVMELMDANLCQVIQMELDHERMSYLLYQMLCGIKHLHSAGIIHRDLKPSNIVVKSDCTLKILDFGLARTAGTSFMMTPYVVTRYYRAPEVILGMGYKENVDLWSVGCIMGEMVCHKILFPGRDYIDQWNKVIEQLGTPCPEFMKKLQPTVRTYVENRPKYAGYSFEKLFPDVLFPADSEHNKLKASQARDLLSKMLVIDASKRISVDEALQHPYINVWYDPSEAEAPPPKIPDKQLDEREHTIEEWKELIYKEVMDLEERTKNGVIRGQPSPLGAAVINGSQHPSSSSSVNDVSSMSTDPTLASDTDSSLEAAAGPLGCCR
5-hydroxytryptamine receptor 2A: 5-hydroxytryptamine receptor 2A (Rattus norvegicus, UniProt P14842)
UniProt P14842, sequence (whole entry, looked up): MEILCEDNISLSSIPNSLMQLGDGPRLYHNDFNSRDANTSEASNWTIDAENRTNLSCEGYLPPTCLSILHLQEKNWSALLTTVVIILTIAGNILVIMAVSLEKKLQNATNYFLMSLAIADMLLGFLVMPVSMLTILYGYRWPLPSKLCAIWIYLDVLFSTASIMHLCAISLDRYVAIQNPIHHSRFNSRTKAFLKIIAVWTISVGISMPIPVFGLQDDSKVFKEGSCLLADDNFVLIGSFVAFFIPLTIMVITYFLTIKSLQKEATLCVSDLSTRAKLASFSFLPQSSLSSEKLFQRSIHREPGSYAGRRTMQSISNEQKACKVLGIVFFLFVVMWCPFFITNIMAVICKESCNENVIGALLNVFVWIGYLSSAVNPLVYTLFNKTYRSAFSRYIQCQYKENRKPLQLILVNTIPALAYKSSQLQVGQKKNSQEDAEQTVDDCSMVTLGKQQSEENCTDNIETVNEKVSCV
FUT9: 4-galactosyl-N-acetylglucosaminide 3-alpha-L-fucosyltransferase 9 (FUT9, Homo sapiens, UniProt Q9Y231)
UniProt Q9Y231, sequence (whole entry, looked up): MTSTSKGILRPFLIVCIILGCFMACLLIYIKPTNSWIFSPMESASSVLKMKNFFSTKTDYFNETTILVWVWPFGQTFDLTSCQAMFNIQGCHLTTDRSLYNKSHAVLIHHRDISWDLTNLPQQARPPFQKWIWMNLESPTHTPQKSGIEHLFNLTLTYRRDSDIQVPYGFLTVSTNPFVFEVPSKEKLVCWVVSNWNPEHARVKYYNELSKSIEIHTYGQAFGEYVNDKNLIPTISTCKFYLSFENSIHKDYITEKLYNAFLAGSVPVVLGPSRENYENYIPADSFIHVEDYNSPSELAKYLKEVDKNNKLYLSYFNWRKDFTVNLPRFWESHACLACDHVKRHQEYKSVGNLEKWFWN
BACE2: Beta-secretase 2 (BACE2, Homo sapiens, UniProt Q9Y5Z0)
UniProt Q9Y5Z0, sequence (whole entry, looked up): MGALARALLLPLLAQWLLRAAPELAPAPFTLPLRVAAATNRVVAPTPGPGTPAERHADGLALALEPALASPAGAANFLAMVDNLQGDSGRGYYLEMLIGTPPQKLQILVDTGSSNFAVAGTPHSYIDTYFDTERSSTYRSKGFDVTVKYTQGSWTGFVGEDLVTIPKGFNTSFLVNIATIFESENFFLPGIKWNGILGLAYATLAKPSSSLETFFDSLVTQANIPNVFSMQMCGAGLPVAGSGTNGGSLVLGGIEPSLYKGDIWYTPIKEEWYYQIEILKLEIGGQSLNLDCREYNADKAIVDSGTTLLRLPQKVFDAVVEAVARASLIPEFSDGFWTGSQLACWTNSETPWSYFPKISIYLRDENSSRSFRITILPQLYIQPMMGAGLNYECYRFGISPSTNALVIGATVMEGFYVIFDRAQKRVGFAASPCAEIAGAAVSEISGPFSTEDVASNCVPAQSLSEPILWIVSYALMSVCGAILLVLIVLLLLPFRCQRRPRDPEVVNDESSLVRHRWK
CASP1: Caspase-1 (CASP1, Homo sapiens, UniProt P29466)
UniProt P29466, sequence (whole entry, looked up): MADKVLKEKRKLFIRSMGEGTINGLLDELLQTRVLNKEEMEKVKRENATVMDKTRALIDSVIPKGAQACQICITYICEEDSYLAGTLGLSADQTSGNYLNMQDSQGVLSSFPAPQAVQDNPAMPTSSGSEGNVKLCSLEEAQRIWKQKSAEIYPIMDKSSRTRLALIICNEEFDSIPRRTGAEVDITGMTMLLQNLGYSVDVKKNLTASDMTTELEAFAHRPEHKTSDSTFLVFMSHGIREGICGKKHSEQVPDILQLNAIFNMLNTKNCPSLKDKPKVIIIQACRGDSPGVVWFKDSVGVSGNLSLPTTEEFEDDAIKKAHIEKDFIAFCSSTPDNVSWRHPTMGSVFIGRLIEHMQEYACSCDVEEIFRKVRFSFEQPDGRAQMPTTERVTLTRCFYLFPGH
SLC10A1: Hepatic sodium/bile acid cotransporter (SLC10A1, Homo sapiens, UniProt Q14973)
UniProt Q14973, sequence (whole entry, looked up): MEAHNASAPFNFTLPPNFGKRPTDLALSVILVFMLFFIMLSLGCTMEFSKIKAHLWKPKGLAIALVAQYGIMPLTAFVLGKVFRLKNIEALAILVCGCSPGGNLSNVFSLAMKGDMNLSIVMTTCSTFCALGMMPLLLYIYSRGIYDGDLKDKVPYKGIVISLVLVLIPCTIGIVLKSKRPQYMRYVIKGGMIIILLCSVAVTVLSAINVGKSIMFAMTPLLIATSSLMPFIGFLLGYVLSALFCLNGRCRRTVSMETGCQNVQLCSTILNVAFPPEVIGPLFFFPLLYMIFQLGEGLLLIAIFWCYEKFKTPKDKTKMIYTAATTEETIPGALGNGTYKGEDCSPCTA
TACR1: Substance-P receptor (TACR1, Homo sapiens, UniProt P25103)
UniProt P25103, sequence (whole entry, looked up): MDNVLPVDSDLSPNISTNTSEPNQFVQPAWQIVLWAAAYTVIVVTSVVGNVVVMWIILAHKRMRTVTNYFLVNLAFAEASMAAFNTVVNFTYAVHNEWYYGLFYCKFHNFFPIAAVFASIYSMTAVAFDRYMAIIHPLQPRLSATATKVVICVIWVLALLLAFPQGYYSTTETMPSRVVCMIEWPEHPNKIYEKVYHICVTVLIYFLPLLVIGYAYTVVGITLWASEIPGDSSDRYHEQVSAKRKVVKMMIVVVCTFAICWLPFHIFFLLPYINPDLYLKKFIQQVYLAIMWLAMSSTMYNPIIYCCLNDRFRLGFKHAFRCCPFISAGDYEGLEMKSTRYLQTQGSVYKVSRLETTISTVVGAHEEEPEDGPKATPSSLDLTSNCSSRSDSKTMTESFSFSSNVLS
UniProt Q00535, sequence (whole entry, looked up): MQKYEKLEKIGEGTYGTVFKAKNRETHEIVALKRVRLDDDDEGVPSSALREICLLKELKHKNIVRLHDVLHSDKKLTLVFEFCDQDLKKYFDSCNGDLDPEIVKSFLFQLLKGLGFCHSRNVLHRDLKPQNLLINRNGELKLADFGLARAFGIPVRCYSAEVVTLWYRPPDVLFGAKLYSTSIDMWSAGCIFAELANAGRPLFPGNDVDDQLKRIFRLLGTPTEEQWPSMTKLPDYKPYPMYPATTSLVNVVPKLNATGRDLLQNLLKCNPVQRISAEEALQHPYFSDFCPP
UniProt Q9NR56, sequence (whole entry, looked up): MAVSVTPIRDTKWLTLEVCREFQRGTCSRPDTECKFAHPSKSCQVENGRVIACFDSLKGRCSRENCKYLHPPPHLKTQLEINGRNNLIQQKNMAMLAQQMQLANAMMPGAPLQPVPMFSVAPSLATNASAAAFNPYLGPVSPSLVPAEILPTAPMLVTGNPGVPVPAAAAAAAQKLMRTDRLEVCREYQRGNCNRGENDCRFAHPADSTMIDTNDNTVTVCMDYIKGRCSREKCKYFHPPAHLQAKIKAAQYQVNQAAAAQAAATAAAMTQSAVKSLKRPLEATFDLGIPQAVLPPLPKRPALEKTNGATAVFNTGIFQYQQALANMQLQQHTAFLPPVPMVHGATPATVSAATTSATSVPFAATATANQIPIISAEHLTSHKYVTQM

SMILES | target | test | system | setting | Ki [µM]
COc1ccc2nc3cc(Cl)ccc3c(NCCCCc3c(N)nc(N)nc3N)c2c1 | Muscleblind-like protein 1, with cTNT RNA (Homo sapiens, UniProt Q9NR56) | MBNL1-RNA binding, gel mobility shift |  | no tRNA, with: cTNT RNA, 15 nM MBNL1 | 6.7 ± 1.6
O=c1[nH]cnc2c(CN[C@H](CO)CC(F)P(=O)(O)O)c[nH]c12 (some centres unmarked) | Hypoxanthine-guanine-xanthine phosphoribosyltransferase | enzyme activity, inhibitor |  | pH 7.4 | 0.0012
O=C(Nc1cccc(-c2nn[nH]n2)c1)c1cc(-n2ccnn2)cc(C(F)(F)F)c1 | Beta-lactamase CTX-M-14 | enzyme activity, inhibitor, absorbance |  | pH 7 | 32.7
CNc1ccccc1C(=O)O[C@H]1[C@@H](O)[C@H](n2ccc(N)nc2=O)O[C@@H]1COP(=O)(O)OP(=O)(O)O | Adcy2/ADCY5, C1/C2 domains (Rattus norvegicus, UniProt P26769+P30803) | adenylyl cyclase activity, inhibitor, purified enzyme |  | with: 10 mM MnCl2, 100 µM forskolin, no Gsα-GTPγS | 1.5 ± 0.075
COc1cc(/C=C/c2cc(O)cc(O)c2)ccc1O | Xanthine dehydrogenase/oxidase (XDH, Bos taurus, UniProt P80457) | uric acid formation, inhibitor |  | pH 10.0, 25 °C, with: xanthine | 96 ± 2
Cc1cc(OCCCN2CCN(c3cccc4sccc34)CC2)ccc1CN1CCCC1 | Htr1a | cell-free assay, radioligand |  |  | 0.164
COc1cccc(/C=N/NC(=O)CSc2nc3ccccc3c(=O)n2CCc2ccc(S(N)(=O)=O)cc2)c1 | Carbonic anhydrase 12 (CA12, Homo sapiens, UniProt O43570) | enzyme activity, inhibitor, stopped-flow |  |  | 0.0592
N=C(N)NCCC[C@H](NC(=O)[C@@H](N)Cc1ccccc1)C(=O)NCCOCCOCC(=O)N1CCCC1 | Prolyl endopeptidase FAP (FAP, Homo sapiens, UniProt Q12884) | enzyme activity, inhibitor, fluorescence |  | pH 7.5 | > 1000
CCCCOc1ccc(C(=O)OCCN2CC=CCC2)cc1 | CHRM4 | ligand displacement, radioligand |  | cell membranes | 11.2
COC(=O)C1(C)C=C(C(=O)O)C(=O)CC1 (centres unmarked) | MAPK8 | ligand displacement, FP |  |  | > 200
CC(C)C[C@H](NC(=O)[C@H](CCCCN)NC(=O)[C@H](CCCCN)NC(=O)[C@H](C)NC(=O)[C@H](CCCCN)NC(=O)[C@H](CCCCN)NC(=O)[C@@H]1CCCN1C(=O)[C@H](C)NC(=O)[C@H](CCCCN)NC(=O)[C@@H]1CCCN1)C(=O)O | Cyclin-dependent kinase 5, with p25 (CDK5, Homo sapiens, UniProt Q00535) | inhibitor |  | 0.2 mM Mg2+, with: peptide substrate varied | 200 ± 100
Clc1cc(CN2CCCC2)ccc1OCCCN1CCN(c2cccc3sccc23)CC1 | 5-hydroxytryptamine receptor 2A | cell-free assay |  |  | 0.249
Nc1nc2c(ncn2[C@@H]2O[C@H](COP(=O)(O)OP(=O)(O)O[C@H]3O[C@@H](CNC(=O)C(c4ccccc4)c4ccccc4)[C@@H](O)[C@@H](O)[C@@H]3F)[C@@H](O)[C@H]2O)c(=O)[nH]1 | FUT9 | enzyme activity, inhibitor |  |  | 3.8
O=C1Nc2ccccc2N(C(=O)CN2CCC(CCCCN3CCC(OC(=O)C(c4ccccc4)c4ccccc4)CC3)CC2)c2ccccc21 | CHRM4 | ligand displacement, radioligand |  |  | 0.00851
O=C(Nc1cccc(-c2nn[nH]n2)c1)c1cc(-c2cncnc2)cc(C(F)(F)F)c1 | Beta-lactamase CTX-M-14 | enzyme activity, inhibitor, absorbance |  | pH 7 | 53.8
O=Cc1ccc(-c2cn([C@@H]3O[C@H](COP(=O)(O)OP(=O)(O)O[C@H]4O[C@H](CO)[C@H](O)[C@H](O)[C@H]4O)[C@@H](O)[C@H]3O)c(=O)[nH]c2=O)s1 | LgtC (lgtC, Neisseria meningitidis, UniProt Q93EK7) | galactosyltransferase activity, inhibitor, radiochemical |  | with: 5 µM UDP-galactose | 0.45
CCC(=O)NCc1cc(C(=O)NCCN2CCC(OC(=O)C(c3ccccc3)c3ccccc3)CC2)cc(C(=O)NCCN2CCN(CCCCC3CCN(CC(=O)N4c5ccccc5NC(=O)c5ccccc54)CC3)CC2)c1 | CHRM4 | ligand displacement, radioligand |  |  | 0.00316
O=C(Nc1cccc(-c2nn[nH]n2)c1)c1cc(-c2ccco2)cc(C(F)(F)F)c1 | Beta-lactamase CTX-M-14 | enzyme activity, inhibitor, absorbance |  | pH 7 | 17.2
Cc1cc(C(=O)N[C@@H](Cc2ccccc2)[C@H](O)CN[C@H](C(=O)NCC(C)C)[C@H](C)O)cc(C(=O)N[C@H](C)c2ccccc2)c1 | BACE2 |  |  |  | 0.183 ± 0.0227

SMILES | target | test | system | setting | Ki [µM]
Nc1nc2c(ncn2[C@@H]2O[C@H](COP(=O)(O)OP(=O)(O)O[C@H]3O[C@@H](CNC(=O)c4ccccc4)[C@@H](O)[C@@H](O)[C@@H]3F)[C@@H](O)[C@H]2O)c(=O)[nH]1 | FUT9 | enzyme activity, inhibitor |  |  | 28.1
Clc1cc(OCCCN2CCN(c3cccc4sccc34)CC2)ccc1CN1CCOCC1 | 5-hydroxytryptamine receptor 2A | cell-free assay |  |  | 0.157
Nc1nc2c(ncn2[C@@H]2O[C@H](COP(=O)(O)OP(=O)(O)O[C@H]3O[C@@H](CNC(=O)CCCc4ccccc4)[C@@H](O)[C@@H](O)[C@@H]3F)[C@@H](O)[C@H]2O)c(=O)[nH]1 | FUT9 | enzyme activity, inhibitor |  |  | 14.2
Cc1cc(C(=O)N[C@@H](Cc2ccccc2)[C@H](O)CN[C@H](C(=O)NCC(C)C)[C@H](C)O)cc(C(=O)N(C)[C@H](C)c2ccccc2)c1 | BACE2 |  |  |  | 0.001 ± 0.00015
CC(=O)N[C@@H](CCC(N)=O)C(=O)N[C@@H](CC(=O)O)C(=O)N[C@H](C(=O)N[C@@H](CCCNC(=N)N)C(=O)N[C@H](C=O)CC(=O)O)[C@@H](C)O | CASP1 | enzyme activity, inhibitor, fluorescence |  | pH 7 | 3.09
CN(C)c1ccc(C#CCOC(=O)[C@]2(C)C=C(C(=O)OC(C)(C)C)C(=O)CC2)cc1 | MAPK8 | ligand displacement, FP |  |  | 1.3
CN1CCN(Cc2ccc(OCCCN3CCN(c4cccc5sccc45)CC3)cc2)CC1 | 5-hydroxytryptamine receptor 2A | cell-free assay |  |  | 0.12
C[C@H](CCC(=O)O)[C@H]1CC[C@H]2[C@@H]3[C@H](O)C[C@H]4C[C@H](OC(=O)CCC(=O)O)CC[C@]4(C)[C@H]3CC[C@]12C | SLC10A1 | taurocholate uptake, inhibitor | HEK293 expressing SLC10A1 |  | < 25
Cc1cc(OCCCN2CCN(c3cccc4sccc34)CC2)ccc1CN1CCCCC1 | Htr1a | cell-free assay, radioligand |  |  | 0.394
Nc1nc2c(ncn2[C@@H]2O[C@H](COP(=O)(O)OP(=O)(O)O[C@H]3O[C@@H](CNC(=O)CCc4ccccc4)[C@@H](O)[C@@H](O)[C@@H]3F)[C@@H](O)[C@H]2O)c(=O)[nH]1 | 4-galactosyl-N-acetylglucosaminide 3-alpha-L-fucosyltransferase FUT6 (FUT6, Homo sapiens, UniProt P51993) | enzyme activity, inhibitor |  |  | 3.7
CCCCCCCCCCCCCC[C@@H](O)[C@@H](O)[C@H](CO[C@H]1O[C@H](CO)[C@H](O)[C@H](O)[C@H]1O)NC(=O)CCCCCCCCc1ccccc1 | Cd1d1 (Mus musculus, UniProt P11609) | competitive binding on microarray |  | with: surface-printed ligand | 3.1 ± 0.3
Clc1cc(OCCCN2CCN(c3cccc4sccc34)CC2)ccc1CN1CCCCC1 | Htr1a | cell-free assay, radioligand |  |  | 0.2
C[C@H](CCC(=O)NCC(=O)O)[C@H]1CC[C@H]2[C@@H]3[C@H](OC(=O)c4cccnc4)C[C@H]4C[C@H](O)CC[C@]4(C)[C@H]3CC[C@]12C | SLC10A1 | transporter uptake, inhibitor, radiometric |  |  | 9.29
Cc1ccccc1-c1cc(N2CCN(Cc3ccccc3)CC2)ccc1N(C)C(=O)C(C)(C)c1cc(C(F)(F)F)cc(C(F)(F)F)c1 | TACR1 | cell-free assay |  | pH 6 | 0.0044
O=C(Nc1cccc(-c2nn[nH]n2)c1)c1cc(-c2cc[nH]c2)cc(C(F)(F)F)c1 | Beta-lactamase CTX-M-14 | enzyme activity, inhibitor, absorbance |  | pH 7 | 10.6
CN1CCN(CCCCC2CCN(CC(=O)N3c4ccccc4NC(=O)c4ccccc43)CC2)CC(N)C1 (centres unmarked) | CHRM4 | ligand displacement, radioligand |  |  | 0.01
CC(=O)N[C@@H](Cc1ccccc1)C(=O)N[C@@H](CC(=O)O)C(=O)N[C@H](C(=O)N1CCC[C@H]1C(=O)N[C@H](C=O)CC(=O)O)C(C)C | CASP1 | enzyme activity, inhibitor, fluorescence |  | pH 7 | 0.0457
Cc1ccccc1-c1cc(N2CCN(C(=O)[C@@H](N)CCCNC(=N)N)CC2)ccc1N(C)C(=O)C(C)(C)c1cc(C(F)(F)F)cc(C(F)(F)F)c1 | TACR1 | binding |  |  | 0.00363
O=c1[nH]cnc2c(CNCC(O)CP(=O)(O)O)c[nH]c12 (centres unmarked) | Hypoxanthine-guanine-xanthine phosphoribosyltransferase | enzyme activity, inhibitor |  | pH 7.4 | 0.0091

Repeated from above:
SMILES | target | test | system | setting | Ki [µM]
CC(=O)N[C@@H](Cc1ccccc1)C(=O)N[C@@H](CC(=O)O)C(=O)N[C@H](C(=O)N1CCC[C@H]1C(=O)N[C@H](C=O)CC(=O)O)C(C)C | CASP1 | enzyme activity, inhibitor, fluorescence |  | pH 7 | 0.0457
Cc1ccccc1-c1cc(N2CCN(C(=O)[C@@H](N)CCCNC(=N)N)CC2)ccc1N(C)C(=O)C(C)(C)c1cc(C(F)(F)F)cc(C(F)(F)F)c1 | TACR1 | binding |  |  | 0.00363
O=c1[nH]cnc2c(CNCC(O)CP(=O)(O)O)c[nH]c12 (centres unmarked) | Hypoxanthine-guanine-xanthine phosphoribosyltransferase | enzyme activity, inhibitor |  | pH 7.4 | 0.0091
